{"data": "Measured values collected from several papers", "gag-pol integrase": "Gag-Pol polyprotein, integrase (gag-pol, Human immunodeficiency virus type 1 group M subtype B, UniProt P04585)", "HDAC3": "Histone deacetylase 3 (HDAC3, Homo sapiens, UniProt O15379)", "CPL": "CPL (Toxoplasma gondii, UniProt Q6DMN0)", "AR": "Androgen receptor (AR, Homo sapiens, UniProt P10275)", "note": "Compare with care: the assays were run in different laboratories. Numbers after ± are the reported error.", "chain of UniProt P10275 (whole entry, looked up)": "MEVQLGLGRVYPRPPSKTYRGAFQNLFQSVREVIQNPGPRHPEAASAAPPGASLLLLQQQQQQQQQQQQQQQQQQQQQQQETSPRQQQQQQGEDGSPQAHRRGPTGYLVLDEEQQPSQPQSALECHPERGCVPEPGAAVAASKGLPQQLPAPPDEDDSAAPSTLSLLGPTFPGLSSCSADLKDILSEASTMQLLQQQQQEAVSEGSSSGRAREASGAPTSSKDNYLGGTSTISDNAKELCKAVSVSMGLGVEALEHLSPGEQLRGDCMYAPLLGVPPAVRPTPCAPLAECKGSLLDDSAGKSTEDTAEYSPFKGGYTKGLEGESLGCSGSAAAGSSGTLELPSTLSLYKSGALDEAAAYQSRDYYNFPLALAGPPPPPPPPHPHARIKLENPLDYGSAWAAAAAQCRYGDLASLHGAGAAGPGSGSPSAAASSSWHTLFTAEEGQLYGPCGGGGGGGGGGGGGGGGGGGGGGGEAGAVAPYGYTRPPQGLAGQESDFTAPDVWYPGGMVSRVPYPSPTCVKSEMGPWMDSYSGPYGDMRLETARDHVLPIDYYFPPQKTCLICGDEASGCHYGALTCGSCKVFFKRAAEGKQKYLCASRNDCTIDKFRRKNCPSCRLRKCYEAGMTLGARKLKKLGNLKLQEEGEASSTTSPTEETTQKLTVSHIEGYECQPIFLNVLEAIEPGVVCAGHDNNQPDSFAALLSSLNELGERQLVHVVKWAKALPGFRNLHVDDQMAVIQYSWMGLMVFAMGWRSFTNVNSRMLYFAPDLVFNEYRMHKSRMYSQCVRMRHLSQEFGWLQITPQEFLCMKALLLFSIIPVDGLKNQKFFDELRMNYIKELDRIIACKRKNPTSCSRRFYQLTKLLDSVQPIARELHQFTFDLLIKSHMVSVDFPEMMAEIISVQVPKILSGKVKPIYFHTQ", "chain of UniProt O15379 (whole entry, looked up)": "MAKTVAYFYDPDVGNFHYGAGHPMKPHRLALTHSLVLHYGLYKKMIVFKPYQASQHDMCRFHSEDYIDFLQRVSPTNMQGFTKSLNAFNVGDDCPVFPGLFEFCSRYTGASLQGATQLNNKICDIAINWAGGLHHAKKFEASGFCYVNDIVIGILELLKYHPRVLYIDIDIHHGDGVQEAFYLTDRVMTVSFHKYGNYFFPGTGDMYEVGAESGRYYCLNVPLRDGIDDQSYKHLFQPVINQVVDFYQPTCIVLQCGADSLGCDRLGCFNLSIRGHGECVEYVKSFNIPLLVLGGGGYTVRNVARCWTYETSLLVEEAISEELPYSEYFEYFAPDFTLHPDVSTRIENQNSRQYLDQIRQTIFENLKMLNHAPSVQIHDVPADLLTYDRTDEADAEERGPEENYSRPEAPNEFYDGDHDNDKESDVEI", "chain of UniProt P62937 (whole entry, looked up)": "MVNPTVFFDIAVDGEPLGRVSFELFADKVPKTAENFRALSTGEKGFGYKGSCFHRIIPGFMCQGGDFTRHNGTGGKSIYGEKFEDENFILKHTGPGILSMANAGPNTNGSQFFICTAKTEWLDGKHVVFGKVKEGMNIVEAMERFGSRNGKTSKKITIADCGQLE", "chain of UniProt Q923Y9 (whole entry, looked up)": "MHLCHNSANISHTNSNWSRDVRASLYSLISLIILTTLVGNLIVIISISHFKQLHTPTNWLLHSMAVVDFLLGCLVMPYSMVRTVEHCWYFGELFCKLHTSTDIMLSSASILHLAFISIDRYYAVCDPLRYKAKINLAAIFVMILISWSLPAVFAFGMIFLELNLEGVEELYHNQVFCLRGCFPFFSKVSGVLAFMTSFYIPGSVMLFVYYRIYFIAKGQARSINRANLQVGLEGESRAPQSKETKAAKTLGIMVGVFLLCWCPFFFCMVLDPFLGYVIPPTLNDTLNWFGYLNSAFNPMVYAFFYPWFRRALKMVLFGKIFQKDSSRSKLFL", "chain of UniProt P30694 (whole entry, unmodified, looked up)": "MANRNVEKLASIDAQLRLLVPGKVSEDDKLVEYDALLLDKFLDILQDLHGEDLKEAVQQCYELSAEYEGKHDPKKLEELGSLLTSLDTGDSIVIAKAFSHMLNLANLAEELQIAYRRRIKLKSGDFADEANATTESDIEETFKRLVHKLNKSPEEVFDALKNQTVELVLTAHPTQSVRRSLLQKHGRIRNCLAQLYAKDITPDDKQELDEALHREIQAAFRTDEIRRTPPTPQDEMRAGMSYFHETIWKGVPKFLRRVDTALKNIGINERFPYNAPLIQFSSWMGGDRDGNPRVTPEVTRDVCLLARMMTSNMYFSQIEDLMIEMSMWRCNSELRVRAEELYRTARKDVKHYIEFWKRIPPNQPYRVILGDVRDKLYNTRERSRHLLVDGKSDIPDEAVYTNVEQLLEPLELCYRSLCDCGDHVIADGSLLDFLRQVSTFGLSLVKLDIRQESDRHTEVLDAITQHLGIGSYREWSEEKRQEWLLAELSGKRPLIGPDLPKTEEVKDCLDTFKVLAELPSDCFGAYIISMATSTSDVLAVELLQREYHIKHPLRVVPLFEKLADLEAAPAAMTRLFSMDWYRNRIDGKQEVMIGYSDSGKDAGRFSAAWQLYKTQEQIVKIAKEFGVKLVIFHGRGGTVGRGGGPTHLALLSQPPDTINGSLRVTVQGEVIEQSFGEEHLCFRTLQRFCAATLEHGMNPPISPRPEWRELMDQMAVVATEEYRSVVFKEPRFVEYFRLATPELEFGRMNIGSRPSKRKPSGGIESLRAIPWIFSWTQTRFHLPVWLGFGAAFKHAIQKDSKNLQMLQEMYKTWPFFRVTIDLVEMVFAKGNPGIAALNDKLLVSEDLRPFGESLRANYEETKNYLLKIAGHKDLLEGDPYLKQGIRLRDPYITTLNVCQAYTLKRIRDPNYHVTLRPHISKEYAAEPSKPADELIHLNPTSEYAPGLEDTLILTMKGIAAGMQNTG", "chain of UniProt A0QSG6 (whole entry, looked up)": "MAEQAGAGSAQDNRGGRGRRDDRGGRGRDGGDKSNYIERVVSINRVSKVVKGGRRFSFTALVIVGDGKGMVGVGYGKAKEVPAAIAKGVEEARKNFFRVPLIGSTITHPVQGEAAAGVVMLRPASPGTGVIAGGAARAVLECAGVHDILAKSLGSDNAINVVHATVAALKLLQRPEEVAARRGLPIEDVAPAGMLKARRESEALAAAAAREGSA", "chain of UniProt Q9NVV5 (whole entry, looked up)": "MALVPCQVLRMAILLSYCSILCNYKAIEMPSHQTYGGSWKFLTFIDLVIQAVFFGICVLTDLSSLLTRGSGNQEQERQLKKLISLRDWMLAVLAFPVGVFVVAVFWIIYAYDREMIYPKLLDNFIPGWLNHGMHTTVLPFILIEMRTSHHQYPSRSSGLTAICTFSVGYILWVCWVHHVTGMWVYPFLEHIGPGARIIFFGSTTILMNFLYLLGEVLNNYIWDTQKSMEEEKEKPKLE", "chain of UniProt P0ABQ4 (whole entry, looked up)": "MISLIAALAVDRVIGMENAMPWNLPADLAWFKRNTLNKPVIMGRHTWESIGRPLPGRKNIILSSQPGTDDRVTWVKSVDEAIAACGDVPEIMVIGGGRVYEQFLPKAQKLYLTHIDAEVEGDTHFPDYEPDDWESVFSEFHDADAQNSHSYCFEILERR", "chain of UniProt O43613 (whole entry, looked up)": "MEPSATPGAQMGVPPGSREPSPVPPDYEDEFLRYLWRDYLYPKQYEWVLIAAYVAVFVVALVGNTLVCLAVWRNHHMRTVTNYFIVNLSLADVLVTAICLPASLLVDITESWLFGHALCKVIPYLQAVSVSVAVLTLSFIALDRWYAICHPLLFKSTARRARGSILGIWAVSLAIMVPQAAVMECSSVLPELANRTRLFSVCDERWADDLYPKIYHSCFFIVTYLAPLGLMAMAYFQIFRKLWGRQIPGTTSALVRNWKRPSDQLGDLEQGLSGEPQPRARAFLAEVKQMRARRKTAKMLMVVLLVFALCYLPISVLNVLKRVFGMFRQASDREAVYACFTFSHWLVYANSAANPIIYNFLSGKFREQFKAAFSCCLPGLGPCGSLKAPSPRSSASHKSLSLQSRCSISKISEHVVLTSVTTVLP", "chain of UniProt P07237 (whole entry, looked up)": "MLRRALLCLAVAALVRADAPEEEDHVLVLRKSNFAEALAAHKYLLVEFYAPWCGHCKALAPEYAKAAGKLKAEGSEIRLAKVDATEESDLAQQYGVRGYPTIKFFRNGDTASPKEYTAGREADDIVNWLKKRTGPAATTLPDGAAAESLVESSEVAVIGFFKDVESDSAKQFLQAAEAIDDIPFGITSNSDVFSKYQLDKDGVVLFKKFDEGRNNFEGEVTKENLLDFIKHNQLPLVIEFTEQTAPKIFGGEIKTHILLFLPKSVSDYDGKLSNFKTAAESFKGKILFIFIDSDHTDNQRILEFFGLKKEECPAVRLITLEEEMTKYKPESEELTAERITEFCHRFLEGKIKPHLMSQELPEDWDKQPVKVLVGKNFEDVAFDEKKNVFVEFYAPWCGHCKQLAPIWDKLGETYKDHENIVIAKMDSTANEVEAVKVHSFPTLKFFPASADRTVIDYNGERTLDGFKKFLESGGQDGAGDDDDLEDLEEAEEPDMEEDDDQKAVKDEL", "chain of UniProt O00748 (whole entry, looked up)": "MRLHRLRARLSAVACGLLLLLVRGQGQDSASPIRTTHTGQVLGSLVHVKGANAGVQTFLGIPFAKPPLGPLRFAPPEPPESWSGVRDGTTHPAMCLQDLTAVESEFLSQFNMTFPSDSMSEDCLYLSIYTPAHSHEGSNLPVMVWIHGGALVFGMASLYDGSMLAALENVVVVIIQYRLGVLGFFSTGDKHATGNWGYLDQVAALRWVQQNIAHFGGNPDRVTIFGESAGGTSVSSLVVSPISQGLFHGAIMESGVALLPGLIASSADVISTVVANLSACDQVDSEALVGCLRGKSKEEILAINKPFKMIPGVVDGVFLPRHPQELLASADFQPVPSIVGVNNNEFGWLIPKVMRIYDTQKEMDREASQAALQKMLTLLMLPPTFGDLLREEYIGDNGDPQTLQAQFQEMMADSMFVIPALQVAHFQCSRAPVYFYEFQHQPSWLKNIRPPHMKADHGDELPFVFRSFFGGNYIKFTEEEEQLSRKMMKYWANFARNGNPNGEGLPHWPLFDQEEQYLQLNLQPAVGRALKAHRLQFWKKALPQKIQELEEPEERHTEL"}
{"SMILES": "CC(C)=C/C=C/[C@@H](C)[C@H]1CC[C@@H]2[C@]1(C)CC[C@H]1[C@]23C=C[C@]2(C[C@@H](O)CC[C@]12C)OO3", "target": "Tyrosine-protein phosphatase non-receptor type 2 (PTPN2, Homo sapiens, UniProt P17706)", "test": "enzyme activity, inhibitor, absorbance", "IC50": "23 µM"}
{"SMILES": "CC[C@H](C)[C@H](NC(=O)[C@H](CCCNC(=N)N)NC(=O)[C@H](CCSC)NC(=O)[C@H](C)N)C(=O)N[C@@H](CO)C(=O)N[C@@H](CCCNC(=N)N)C(=O)N[C@H](C(=O)N[C@H](C(=O)N[C@@H](CCCNC(=N)N)C(=O)N[C@@H](CC(=O)O)C(=O)N[C@@H](Cc1ccccc1)C(=O)N[C@@H](CC(C)C)C(=O)N[C@@H](Cc1ccccc1)C(=O)N[C@@H](CCC(N)=O)C(=O)N[C@@H](CCCNC(=N)N)C(=O)N[C@@H](CCCCN)C(=O)N[C@@H](CCCCN)C(=O)O)[C@@H](C)CC)[C@@H](C)CC", "target": "histidine kinase ComD (Streptococcus pneumoniae serotype 4, UniProt A0A0H2US84)", "system": "Streptococcus pneumoniae", "IC50": "> 1 µM"}
{"SMILES": "COc1cc(N2CCC(N3CCN(C)CC3)CC2)ccc1Nc1ncc(Cl)c(Nc2ccccc2S(=O)(=O)C(C)C)n1", "target": "Lysine--tRNA ligase (Plasmodium falciparum, UniProt Q8IDJ8)", "test": "enzyme activity, inhibitor, absorbance", "IC50": "> 50 µM"}
{"SMILES": "C=CC[C@](C)(NC(=O)[C@H](CC(C)C)NC(=O)[C@H](CCCCN)NC(=O)[C@H](CC(C)C)NC(=O)[C@](C)(CC=C)NC(=O)[C@H](Cc1ccccc1)NC(=O)[C@H](Cc1ccc(O)cc1)NC(=O)[C@H](C)NC(=O)[C@@H](N)[C@@H](C)O)C(=O)NCC(=O)N[C@@H](CCCNC(=N)N)C(=O)N[C@@H](Cc1c[nH]c2ccccc12)C(N)=O", "target": "gag-pol integrase", "test": "integrase strand transfer, inhibitor", "IC50": "> 111 µM"}
{"SMILES": "C[C@@H]1CCN(c2nc3cc(Cl)ccc3o2)CCN1S(=O)(=O)c1ccccc1", "target": "Orexin receptor type 2 (HCRTR2, Homo sapiens, UniProt O43614)", "test": "calcium signal, antagonist, fluorescence", "IC50": "1.09 µM"}
{"SMILES": "CC(C)C[C@@H]1NC(=O)[C@H](Cc2ccc(O)cc2)NC(=O)[C@H](CC(N)=O)NC(=O)[C@H](CO)NC(=O)[C@@H](NC(=O)[C@@H]2CCCN2C(=O)[C@H](CC(N)=O)NC(=O)[C@H](Cc2ccc(O)cc2)NC(=O)[C@@H](N)CCCCN)CSC1=O", "target": "Accessory gene regulator protein C (Staphylococcus epidermidis, UniProt O86861)", "IC50": "0.00284 µM"}
{"SMILES": "CCCCCCCCCCCC1N=C(N)N=C(N)N1c1ccc(Cl)cc1 (racemic)", "target": "Dihydrofolate reductase (folA, Escherichia coli, UniProt P0ABQ4)", "test": "enzyme activity, inhibitor", "IC50": "2.1 µM"}
{"SMILES": "O=C(CCCCCCC(=O)Nc1cccc(N=Nc2ccccc2)c1)NO", "target": "HDAC3", "test": "enzyme activity, inhibitor", "setting": "cis isomer, irradiated", "IC50": "0.022 ± 0.007 µM"}
{"SMILES": "CCC(CC)c1cc(C2CN3CCC2CC3CNC)nc(-c2ccncc2)n1 (centres unmarked)", "target": "Cell division protein FtsZ (ftsZ, Staphylococcus aureus, UniProt P0A031)", "test": "enzyme activity, inhibitor", "IC50": "189 µM"}
{"SMILES": "CSc1ccc2c(c1)C(N1CCN(C)CC1)Cc1ccccc1S2 (centres unmarked)", "target": "5-hydroxytryptamine receptor 1 (5-HT7, Drosophila melanogaster, UniProt P20905)", "test": "calcium response, antagonist, calcium imaging", "system": "HEK293T", "setting": "with: 5-HT near EC50", "IC50": "9 µM"}
{"SMILES": "CC(C)CCN(Cc1ccccc1C(F)(F)F)c1nc(C#N)nc(N2CCOCC2)n1", "target": "CPL", "test": "enzyme activity, inhibitor, Z-L-R-AMC hydrolysis fluorescence", "IC50": "0.74 µM"}
{"SMILES": "CC[C@@H]1NC(=O)[C@H]([C@H](O)[C@H](C)Cc2nc3ccc(C(=O)c4ccccc4)cc3[nH]2)N(C)C(=O)[C@H](C(C)C)N(C)C(=O)[C@H](CC(C)C)N(C)C(=O)[C@H](CC(C)C)N(C)C(=O)[C@@H](C)NC(=O)[C@H](C)NC(=O)[C@H](CC(C)C)N(C)C(=O)[C@H](C(C)C)NC(=O)[C@H](CC(C)C)N(C)C(=O)CN(C)C1=O", "target": "Peptidyl-prolyl cis-trans isomerase A (PPIA, Homo sapiens, UniProt P62937)", "test": "enzyme activity, inhibitor", "IC50": "0.0141 µM"}
{"SMILES": "CCCCN(Cc1ccc(F)cc1)c1nc(C#N)nc(N2CCOCC2)n1", "target": "CPL", "test": "enzyme activity, inhibitor, Z-L-R-AMC hydrolysis fluorescence", "IC50": "0.117 µM"}
{"SMILES": "CN[C@@H]1[C@H](O)[C@H](NC)[C@H]2O[C@]3(O)[C@H](O[C@@H]2[C@H]1O)O[C@H](C)C[C@@]3(O)CNCc1ccc(OC(F)(F)F)cc1", "target": "Small ribosomal subunit protein uS5, 70S ribosome (rpsE, Mycolicibacterium smegmatis, UniProt A0QSG6)", "test": "translation, inhibitor, in vitro translation, luciferase", "system": "Mycobacterium smegmatis ribosomes", "IC50": "1.15 µg/mL"}
{"SMILES": "O=C(CCCCCCC(=O)Nc1ccccc1N=Nc1ccccc1)NO", "target": "HDAC3", "test": "enzyme activity, inhibitor", "setting": "trans isomer", "IC50": "0.008 ± 0.002 µM"}
{"SMILES": "N=C(N)NN=C1C=C2CC(=NNC(=N)N)C=C2C1", "target": "Mycosin-1 (Mycolicibacterium thermoresistibile, UniProt G7CDQ2)", "test": "enzyme activity, inhibitor", "IC50": "48 µM"}
{"SMILES": "CC(C)[C@@H](NC(=O)[C@@H](C)c1cccc(C(=O)c2ccccc2)c1)C(=O)N[C@H](CCC(=O)O)C(=O)N[C@@H](C(=O)N[C@H](CCC(=O)O)C(=O)O)C(C)C", "target": "Prostaglandin G/H synthase 1 (PTGS1, Ovis aries, UniProt P05979)", "test": "enzyme activity, inhibitor, fluorescence", "IC50": "27.7 µM"}
{"SMILES": "O=C(O)c1ccccc1Nc1ccc(Oc2ccc(F)cc2)cc1", "target": "AR", "test": "reporter gene, antagonist, MMTV-Luc reporter", "system": "MDA-kb2", "setting": "20 h, with: 8 nM DHT (EC90)", "IC50": "> 100 µM"}
{"SMILES": "Cc1ccccc1CN(CCC(C)C)c1nc(C#N)nc(N2CCOCC2)n1", "target": "CPL", "test": "enzyme activity, inhibitor, Z-L-R-AMC hydrolysis fluorescence", "IC50": "0.107 µM"}
{"SMILES": "O=C(O)c1ccccc1Nc1ccc(Oc2ccc(C(F)(F)F)cc2)cc1", "target": "AR", "test": "reporter gene, antagonist, MMTV-Luc reporter", "system": "MDA-kb2", "setting": "20 h, with: 0.2 nM DHT (EC50)", "IC50": "3.7 ± 1.8 µM"}
{"SMILES": "CC(=O)Nc1ccc(S(=O)(=O)N2CCN(c3nc4ccc(Cl)cc4o3)CC[C@H]2C)cc1", "target": "Orexin/Hypocretin receptor type 1 (HCRTR1, Homo sapiens, UniProt O43613)", "test": "calcium signal, antagonist, fluorescence", "IC50": "1.33 µM"}
{"SMILES": "CC(C)C[C@@H]1NC(=O)[C@H](CCCCN)NC(=O)[C@H](CC(C)C)NC(=O)[C@@](C)(NC(=O)[C@H](Cc2ccccc2)NC(=O)[C@H](Cc2ccc(O)cc2)NC(=O)[C@H](C)NC(=O)[C@@H](N)[C@@H](C)O)CCCC=CCCC[C@@](C)(C(=O)NCC(=O)N[C@@H](CCCNC(=N)N)C(=O)N[C@@H](Cc2c[nH]c3ccccc23)C(N)=O)NC1=O", "target": "gag-pol integrase", "test": "integrase 3'-processing, inhibitor", "IC50": "9 ± 1 µM"}
{"SMILES": "CC1(C(=O)O)CCCC2(C)C1CCC1(C)c3cocc3CCC12 (centres unmarked)", "target": "AR", "test": "reporter gene, antagonist, luciferase", "IC50": "> 30 µM"}
{"SMILES": "COC(=O)C1CN1S(=O)(=O)c1ccc(N)cc1 (centres unmarked)", "target": "Protein disulfide-isomerase (P4HB, Homo sapiens, UniProt P07237)", "test": "enzyme activity, inhibitor, absorbance", "setting": "pH 7.6", "IC50": "> 200 µM"}
{"SMILES": "CC(C)[C@H](NC(=O)[C@H](CO)NC(=O)[C@@H](N)CC(=O)O)C(=O)N[C@H]1CSC(=O)[C@H](Cc2ccccc2)NC(=O)[C@H](Cc2ccc(O)cc2)NC(=O)[C@H](CO)NC(=O)[C@H](C)NC1=O", "target": "Accessory gene regulator protein C (Staphylococcus aureus, UniProt O33590)", "IC50": "0.013 µM"}
{"SMILES": "CN(C)c1ccc(C(=O)N2CCN3C(=O)N(OC(=O)N4CCC(CCc5ccc(Cl)cc5)CC4)C(=O)C3C2)cc1 (centres unmarked)", "target": "Androgen-induced gene 1 protein (Homo sapiens, UniProt Q9NVV5)", "IC50": "0.57 ± 0.14 µM"}
{"SMILES": "O=C(O)CC(O)C(=O)O (centres unmarked)", "target": "PPCA (Flaveria trinervia, UniProt P30694, G884R)", "test": "enzyme activity, inhibitor", "setting": "with: PEP at 2 × Km", "IC50": "2800 µM"}
{"SMILES": "C=C(NC(=O)C(=C)NC(=O)c1csc(C2=NC3c4csc(n4)C4NC(=O)c5csc(n5)C(C(C)(O)C(C)O)NC(=O)C5CSC(=N5)C(=CC)NC(=O)C(C(C)O)NC(=O)c5csc(n5)C3(CC2)NC(=O)C(C)NC(=O)C(=C)NC(=O)C(C(C)C)NC2C=Cc3c(C(C)O)cc(nc3C2O)C(=O)OC4C)n1)C(N)=O (centres unmarked)", "target": "Proteasome subunit beta type-6 (PSMB6, Homo sapiens, UniProt P28072)", "test": "caspase-like activity, inhibitor", "system": "purified human 20S proteasome", "setting": "37 °C, 15 min preincubation, with: Ac-Nle-Pro-Nle-Asp-AMC", "IC50": "1.2 ± 0.04 µM"}
{"SMILES": "O=C1c2ccccc2[Se](=O)N1c1ccccc1 (centres unmarked)", "target": "Protein deacetylase HDAC6 (HDAC6, Homo sapiens, UniProt Q9UBN7)", "test": "enzyme activity, inhibitor, fluorescence", "IC50": "2.98 µM"}
{"SMILES": "Cc1[nH]c2ccccc2c1C(c1cccc(Br)c1)C(C#N)C#N (centres unmarked)", "target": "Cocaine esterase (CES2, Homo sapiens, UniProt O00748)", "test": "enzyme activity, inhibitor", "system": "human liver microsomes", "setting": "pH 7.4, 37 °C, with: fluorescein diacetate", "IC50": "2.89 ± 0.3 µM"}
{"SMILES": "CSCC[C@H](NC(=O)[C@H](CC(C)C)NC(=O)[C@H](Cc1cnc[nH]1)NC(=O)CNC(=O)[C@@H](NC(=O)[C@H](C)NC(=O)[C@H](Cc1c[nH]c2ccccc12)NC(=O)[C@H](CCC(N)=O)NC(=O)[C@H](N)Cc1ccccc1)C(C)C)C(N)=O", "target": "Bombesin receptor subtype-3 (BRS3, Homo sapiens, UniProt P32247)", "test": "human GRPR activity, cell-based", "IC50": "> 3 µM"}
{"SMILES": "O=C[C@H](C[C@H]1CCNC1=O)NC(=O)[C@H](CC1CCCCC1)NC(=O)OCc1ccccc1", "target": "Genome polyprotein, 3C protease (Human enterovirus D68, UniProt Q68T42)", "test": "3C protease activity, inhibitor, FRET", "IC50": "0.083 ± 0.01 µM"}
{"SMILES": "O=C1c2c(O)cc(O)cc2O[C@]2(c3ccc(O)c(O)c3)Oc3cc(O)c4c(=O)c(O)c(-c5ccc(O)cc5)oc4c3[C@]12O", "target": "Acetylcholinesterase (ACHE, Homo sapiens, UniProt P22303)", "test": "enzyme activity, inhibitor, Ellman", "IC50": "10.7 µM"}
{"SMILES": "N#Cc1c(C(F)(F)F)cc(-c2ccc(Cl)cc2)nc1SCC(=O)Nc1ccccn1", "target": "Trace amine-associated receptor 1 (Rattus norvegicus, UniProt Q923Y9)", "IC50": "2.25 ± 0.58 µM"}
{"SMILES": "CCC(C)SSc1ncc[nH]1 (centres unmarked)", "target": "genome polyprotein, 3C protease (Enterovirus D68, UniProt A0A097BW19)", "test": "enzyme activity, inhibitor", "setting": "no DTT", "IC50": "1.2 ± 0.2 µM"}
{"SMILES": "CC(=O)N[C@@H](CCCNC(=N)N)C(=O)N[C@@H](Cc1ccc(O)cc1)C(=O)N[C@@H](CCCNC(=N)NC(=O)NCCCCN)C(=O)N[C@@H](CC(C)C)C(=O)N[C@H](CCCNC(=N)N)C(=O)N[C@@H](Cc1ccc(O)cc1)C(N)=O", "target": "Neuropeptide Y receptor type 4 (NPY4R, Homo sapiens, UniProt P50391)", "test": "calcium signal, antagonist", "IC50": "8.34 µM"}
{"SMILES": "CC[C@@H]1NC(=O)[C@H](CCCNC(=N)N)NC(=O)[C@H](NC(=O)C(C)C)CCNC(=O)c2cc(F)c(c(F)c2)N=Nc2c(F)cc(cc2F)C(=O)NCCNC(=O)[C@@H](Cc2ccccc2)NC1=O", "target": "WD repeat-containing protein 5, MLL1 complex (WDR5, Homo sapiens, UniProt P61964)", "test": "histone methyltransferase activity", "setting": "trans PSS at 405 nm", "IC50": "9.2 ± 3.04 µM"}
{"SMILES": "Cc1cc(S(=O)(=O)Nc2ncccn2)c(F)cc1N(C)C1CCN([C@H](C)c2ccccc2)CC1", "target": "Sodium channel protein type 5 subunit alpha (SCN5A, Homo sapiens, UniProt Q14524)", "test": "sodium current, inhibitor, automated patch clamp", "setting": "inactivated state, Vh -60 mV", "IC50": "138 µM"}
